Measurements collected from several papers.
Each line is one published result; not all experiments were run side by side. Several values in a cell are separate wells, animals, samples, runs or records. Numbers after ± are the reported error. Converted amounts (≈) assume the structure as drawn.

The tissue concentration of Oc1ccc2ccc3cccc4ccc1c2c34 is reported as 154 ± 23 ng/g (HPLC-fluorescence; Wistar rat, male, kidney; oral, 4 mg/kg PY, 24 h).
CN[C@@](C)(C[18F])C(=O)O has a tracer uptake of 1.7 %ID/g (mouse, blood; 30 min, tumour-bearing).
CC(=O)N[C@H](CCCCNC(=O)C(C)F)C(=O)N[C@@H](CS)C(=O)N[C@@H](CS)C(=O)N[C@@H](CCC(=O)O)C(=O)N[C@@H](Cc1c[nH]cn1)C(=O)N[C@H](Cc1ccccc1)C(=O)N[C@@H](CCCNC(=N)N)C(=O)N[C@@H](Cc1c[nH]c2ccccc12)C(=O)N[C@@H](CS)C(=O)N[C@@H](CCCNC(=N)N)C(=O)N1CCC[C@H]1C(=O)N[C@H](C(N)=O)C(C)C (stereo partly drawn) [fluorine-18 labelled] gave a tissue uptake of 0.67 ± 0.31 %ID/g (C57BL/6 mice, male, B16-F10 tumour, stomach; intravenous, 1 h).
For CSCC[C@@H]1NC(=O)[C@H](CC(=O)O)NC(=O)CNC(=O)[C@H](CCCNC(=N)N)NC(=O)[C@H](C)NC(=O)[C@H](CCC(=O)O)NC(=O)[C@H](CCCNC(=N)N)NC(=O)[C@@H]2CSSC[C@@H]3NC(=O)[C@H](CO)NC(=O)[C@H]([C@@H](C)O)NC(=O)[C@@H]4CCCN4C(=O)[C@H](C)NC(=O)[C@H](Cc4c[nH]c5ccccc45)NC(=O)[C@H](CC(=O)O)NC(=O)CNC(=O)[C@H](CCCNC(=N)N)NC(=O)CNC(=O)[C@H](CCC(N)=O)NC(=O)[C@@H]4CCCN4C(=O)[C@@H](NC(=O)CNC(=O)C(C)F)CSSC[C@H](NC(=O)CNC(=O)[C@H](C)NC(=O)[C@H](CC(C)C)NC(=O)[C@H](CSSC[C@@H](C(=O)NCC(N)=O)NC(=O)[C@H]([C@@H](C)O)NC(=O)[C@H](CCCNC(=N)N)NC(=O)[C@@H]4CCCN4C1=O)NC(=O)[C@H](CC(=O)O)NC(=O)[C@H](CO)NC(=O)[C@H](CC(=O)O)NC(=O)[C@H](CCC(N)=O)NC(=O)[C@H](CO)NC3=O)C(=O)N[C@@H](C(C)C)C(=O)N2 (stereo partly drawn) [fluorine-18 labelled], the tissue uptake was 0.94 ± 0.05 %ID/g (nude mice U-87 MG xenograft, intestine; intravenous, 1 h).
O=c1[nH]c(Cc2ccccn2)nc2c1cnn2C1CCOCC1 gave a Cmax of 613 nM (male human, plasma; oral, 50 mg, single dose).
With CC(C)C[C@H](NC(=O)[C@H](CC(=O)O)NC(=O)CNC(=O)[C@H](CCCNC(=N)N)NC(=O)[C@H](CC(C)C)NC(=O)[C@H](CC(N)=O)NC(=O)[C@@H]1CCCN1C(=O)[C@@H](NC(=O)[C@H](C)NC(=O)[C@H](CC(N)=O)NC(=O)CCOCCOCCOCCOCCOCCOCCOCCOCCOCCOCCOCCOCCOCCOCCOCCOCCOCCOCCOCCOCCOCCOCCOCCOCCOCCOCCOCCOCCNC(=O)CN1CCN(CC(=O)O)CCN(CC(=O)O)CC1)C(C)C)C(=O)N[C@@H](CCC(N)=O)C(=O)N[C@H](C(=O)N[C@@H](CC(C)C)C(=O)N[C@@H](C)C(=O)N[C@@H](CCC(N)=O)C(=O)N[C@@H](CCCNC(=N)N)C(=O)N[C@H](C(=O)N[C@@H](C)C(=O)N[C@@H](CCCNC(=N)N)C(=O)N[C@H](C(=O)NCCOCCOCCOCCOCCOCCOCCOCCOCCOCCOCCOCCOCCOCCOCCOCCOCCOCCOCCOCCOCCOCCOCCOCCOCCOCCOCCOCCOCCC(N)=O)[C@@H](C)O)C(C)C)C(C)C [fluorine-18 labelled] the tissue uptake was at most 0.9 %ID/g (female athymic nude mice, DX3puroβ6/DX3puro xenografts, bone; intravenous, 0.175 nmol).
CC(C)C[C@@H](NC(=O)[C@@H](Cc1ccccc1)NC(=O)[C@H](N)Cc1ccccc1)C(=O)N[C@H](CCCCN)C(=O)N1CCC(N)(C(=O)O)CC1 — result for “dose recovered in feces”: 11.3% (refers to: total radioactivity; healthy human subjects; intravenous, time not given).
With O=C(CC(=O)c1ccccc1)c1ccccc1 the Tmax was 3.3 h (Sprague-Dawley rat, male, plasma; oral, 250 mg/kg, regular emulsion).
With Clc1ccc(Cl)c(-c2c(Cl)ccc(Cl)c2Cl)c1 the enantiomeric fraction was 0.64 (rat liver microsomes; 50 µM, 30 min, remaining parent PCB).
For CCc1cc(O)ccc1-c1ccc2c(-c3nc4c([nH]3)CN(C(C)C)[C@H](C(=O)N3CC(N(C)C)C3)C4)n[nH]c2c1, the t_half was about 1440 min (human, plasma; inhalation, single and multiple doses).
CC(=O)CO gave a specification limit of 90 µg/mL (propylene glycol; dermal, toxicity-qualified).
CCCCCOc1ccc(-c2ccc(-c3ccc(C(=O)N[C@H]4C[C@@H](O)[C@@H](O)NC(=O)[C@@H]5[C@@H](O)[C@@H](C)CN5C(=O)[C@H]([C@@H](C)O)NC(=O)[C@H]([C@H](O)[C@@H](O)c5ccc(O)cc5)NC(=O)[C@@H]5C[C@@H](O)CN5C(=O)[C@H]([C@@H](C)O)NC4=O)cc3)cc2)cc1 has a Vss of 0.78 L/kg (population PK model; patients aged 5 to < sample A years; intravenous, 3.0 mg/kg loading, 1.5 mg/kg once daily, median, weight-corrected).
For CC[C@H](C)[C@H](NC(=O)[C@H](CC(C)C)NC(=O)[C@H](Cc1c[nH]c2ccccc12)NC(=O)[C@H](CCC(N)=O)NC(=O)[C@@H](NC(=O)[C@H](Cc1ccccc1)NC(=O)[C@H](C)NC(=O)[C@H](CCCCNC(=O)COCCOCCNC(=O)COCCOCCNC(=O)CC[C@H](NC(=O)CCCCCCCCCCCCCCCCCCC(=O)O)C(=O)O)NC(=O)[C@H](CCC(N)=O)NC(=O)[C@H](C)NC(=O)[C@@H](NC(=O)[C@H](CCCCN)NC(=O)[C@H](CC(=O)O)NC(=O)[C@H](CC(C)C)NC(=O)C(C)(C)NC(=O)[C@@H](NC(=O)[C@H](CO)NC(=O)[C@H](Cc1ccc(O)cc1)NC(=O)[C@H](CC(=O)O)NC(=O)[C@H](CO)NC(=O)[C@@H](NC(=O)[C@H](Cc1ccccc1)NC(=O)[C@@H](NC(=O)CNC(=O)[C@H](CCC(=O)O)NC(=O)C(C)(C)NC(=O)[C@@H](N)Cc1ccc(O)cc1)[C@@H](C)O)[C@@H](C)O)[C@@H](C)CC)[C@@H](C)CC)C(C)C)C(=O)N[C@@H](C)C(=O)NCC(=O)NCC(=O)N1CCC[C@H]1C(=O)N[C@@H](CO)C(=O)N[C@@H](CO)C(=O)NCC(=O)N[C@@H](C)C(=O)N1CCC[C@H]1C(=O)N1CCC[C@H]1C(=O)N1CCC[C@H]1C(=O)N[C@@H](CO)C(N)=O, the CL/F was 1.03 mL/min (human, normal renal function, plasma; subcutaneous, 5 mg single dose, geometric mean).
Nc1nc(N)nc(N)n1 has a serum concentration of 89.6 µg/mL and 294 µg/mL and 552 µg/mL and 409 µg/mL and 411 µg/mL (LC-MS/MS; pregnant female rat, serum; oral, 1000 mg/kg/day, 10 days).
The Vdss of CCCCCOc1ccc(-c2cc(-c3ccc(C(=O)N[C@H]4C[C@@H](O)[C@@H](O)NC(=O)[C@@H]5[C@@H](O)[C@@H](C)CN5C(=O)[C@H]([C@H](O)CC(N)=O)NC(=O)[C@H]([C@H](O)[C@@H](O)c5ccc(O)c(OS(=O)(=O)O)c5)NC(=O)[C@@H]5C[C@@H](O)CN5C(=O)[C@H]([C@@H](C)O)NC4=O)cc3)no2)cc1 is reported as 1.5 L (preterm neonates, whole cohort, plasma; intravenous, 15 mg/kg/day, repeated dosing, mean).
NC(=O)c1nc(F)c[nH]c1=O has a solubility of 1100 µg/mL (≈ 6.97 mM) (UV-Vis spectrophotometry; supercritical CO2; 120 min, 308 K, 24 MPa, 895.54 kg/m^3).
CC(C)Nc1nc(Cl)nc(NC(C)C)n1 has a remaining amount of 15.5 ± 5.07% (LC-MS/MS; herbicide solution; 2 h, 23 °C, added: 254 nm UV exposure).
CC[C@H](C)[C@H](NC(=O)[C@@H](N)CCCNC(=N)N)C(=O)N[C@H](C(=O)N1CCC[C@H]1C(=O)N[C@@H](C)C(N)=O)C(C)C gave a Tmax of 0.05 h (CD-1 mouse, female, plasma; intravenous, 90 mg/kg daily, day 14, infused over 1 min).
The AUC of O[C@H]1CCCN[C@@H]1CCCn1cnc2c(Cl)c(Cl)ccc21 is reported as 2280 ng·h/mL (human, plasma; oral, 500 mg, single dose, healthy volunteers).
COc1ccc(C[C@@H]2NC(=O)[C@H]([C@@H](C)O)NC(=O)[C@@H]3[C@@H]4CCN3C(=O)[C@@H]3Cc5cn(c6ccc(F)cc56)CCCCCCN(Cc5ccc(cc5)CCNC(=O)[C@]5(C)CCCN5C2=O)C(=O)CCC(=O)N[C@@H](C)C(=O)N[C@H](CNC(=O)CCCCC[N+](C)(C)C)C(=O)N[C@@H](Cc2cccc(c2)CNC(=O)CO4)C(=O)N3)cc1 has a CL/F of 716 mL/min (fasted healthy humans, plasma; oral, 35 mg single dose, with 1800 mg Labrasol, geometric mean).
For CC[C@H](C)[C@H](NC(=O)[C@H](CCCNC(=N)N)NC(=O)[C@H](CCCNC(=N)N)NC(=O)c1ccc2c(c1)C(=O)OC21c2ccc(O)cc2Oc2cc(O)ccc21)C(=O)N[C@@H](CCCNC(=N)N)C(=O)N1CCC[C@H]1C(=O)N[C@@H](CCCNC(=N)N)C(=O)N1CCC[C@H]1C(=O)N1CCC[C@H]1C(=O)N[C@@H](CCCNC(=N)N)C(=O)N[C@@H](CC(C)C)C(=O)N1CCC[C@H]1C(=O)N[C@@H](CCCNC(=N)N)C(=O)N1CCC[C@H]1C(=O)N[C@@H](CCCNC(=N)N)C(=O)N1CCC[C@H]1C(=O)N[C@@H](CCCNC(=N)N)C(=O)N1CCC[C@H]1C(=O)N[C@@H](CC(C)C)C(=O)N1CCC[C@H]1C(=O)N[C@@H](Cc1ccccc1)C(=O)N1CCC[C@H]1C(=O)N[C@@H](CCCNC(=N)N)C(=O)N1CCC[C@H]1C(=O)NCC(=O)O, “apparent skin permeability” read “no effect” (no effect; Sprague-Dawley rat, excised skin; 50 µmol/L, 37 °C, FAM-labelled CPP conjugate; reference: free FAM).
CCCCCCCCCCCC[N+](C)(C)C: “unbound fraction in blood” 0.027 (ultrafiltration; human serum).
For Cc1c(P(=S)(c2ccccc2)c2ccccc2)n2ccccc2[n+]1C/C=C/c1ccccc1, the concentration was 43 ng/g (mouse, brain; intraperitoneal, 10 mg/kg, 12 h).
CC[C@H](C)[C@H](NC(=O)[C@H](CO)NC(=O)[C@H](C)NC(=O)[C@@H](NC(=O)CNC(=O)[C@H](CO)NC(=O)[C@@H](NC(=O)[C@@H](NC(=O)[C@H](Cc1c[nH]cn1)NC(=O)[C@@H]1CCCN1C(=O)[C@@H](NC(=O)[C@H](CC(C)C)NC(=O)[C@H](CO)NC(=O)[C@H](CC(C)C)NC(=O)[C@@H](N)Cc1ccccc1)[C@@H](C)CC)[C@@H](C)CC)C(C)C)C(C)C)C(=O)N[C@@H](C)C(=O)N[C@@H](CCCCN)C(=O)N[C@@H](Cc1c[nH]cn1)C(=O)N[C@@H](Cc1ccccc1)C(N)=O gave a concentration found of 0.18 µg/mL (UPLC-MS/MS; rat plasma; 0.2 µg/mL, 10 days, -20 °C, long-term stability).

Some of these lines once more:
CC[C@H](C)[C@H](NC(=O)[C@@H](N)CCCNC(=N)N)C(=O)N[C@H](C(=O)N1CCC[C@H]1C(=O)N[C@@H](C)C(N)=O)C(C)C gave a Tmax of 0.05 h (CD-1 mouse, female, plasma; intravenous, 90 mg/kg daily, day 14, infused over 1 min).
The Vdss of CCCCCOc1ccc(-c2cc(-c3ccc(C(=O)N[C@H]4C[C@@H](O)[C@@H](O)NC(=O)[C@@H]5[C@@H](O)[C@@H](C)CN5C(=O)[C@H]([C@H](O)CC(N)=O)NC(=O)[C@H]([C@H](O)[C@@H](O)c5ccc(O)c(OS(=O)(=O)O)c5)NC(=O)[C@@H]5C[C@@H](O)CN5C(=O)[C@H]([C@@H](C)O)NC4=O)cc3)no2)cc1 is reported as 1.5 L (preterm neonates, whole cohort, plasma; intravenous, 15 mg/kg/day, repeated dosing, mean).
For CSCC[C@@H]1NC(=O)[C@H](CC(=O)O)NC(=O)CNC(=O)[C@H](CCCNC(=N)N)NC(=O)[C@H](C)NC(=O)[C@H](CCC(=O)O)NC(=O)[C@H](CCCNC(=N)N)NC(=O)[C@@H]2CSSC[C@@H]3NC(=O)[C@H](CO)NC(=O)[C@H]([C@@H](C)O)NC(=O)[C@@H]4CCCN4C(=O)[C@H](C)NC(=O)[C@H](Cc4c[nH]c5ccccc45)NC(=O)[C@H](CC(=O)O)NC(=O)CNC(=O)[C@H](CCCNC(=N)N)NC(=O)CNC(=O)[C@H](CCC(N)=O)NC(=O)[C@@H]4CCCN4C(=O)[C@@H](NC(=O)CNC(=O)C(C)F)CSSC[C@H](NC(=O)CNC(=O)[C@H](C)NC(=O)[C@H](CC(C)C)NC(=O)[C@H](CSSC[C@@H](C(=O)NCC(N)=O)NC(=O)[C@H]([C@@H](C)O)NC(=O)[C@H](CCCNC(=N)N)NC(=O)[C@@H]4CCCN4C1=O)NC(=O)[C@H](CC(=O)O)NC(=O)[C@H](CO)NC(=O)[C@H](CC(=O)O)NC(=O)[C@H](CCC(N)=O)NC(=O)[C@H](CO)NC3=O)C(=O)N[C@@H](C(C)C)C(=O)N2 (stereo partly drawn) [fluorine-18 labelled], the tissue uptake was 0.94 ± 0.05 %ID/g (nude mice U-87 MG xenograft, intestine; intravenous, 1 h).
